{"data": "Assay results from different studies", "target": "Alpha-glucosidase MAL12 (MAL12, Saccharomyces cerevisiae S288c, UniProt P53341)", "note": "± gives the spread as reported.", "sequence of UniProt P53341 (whole entry, looked up)": "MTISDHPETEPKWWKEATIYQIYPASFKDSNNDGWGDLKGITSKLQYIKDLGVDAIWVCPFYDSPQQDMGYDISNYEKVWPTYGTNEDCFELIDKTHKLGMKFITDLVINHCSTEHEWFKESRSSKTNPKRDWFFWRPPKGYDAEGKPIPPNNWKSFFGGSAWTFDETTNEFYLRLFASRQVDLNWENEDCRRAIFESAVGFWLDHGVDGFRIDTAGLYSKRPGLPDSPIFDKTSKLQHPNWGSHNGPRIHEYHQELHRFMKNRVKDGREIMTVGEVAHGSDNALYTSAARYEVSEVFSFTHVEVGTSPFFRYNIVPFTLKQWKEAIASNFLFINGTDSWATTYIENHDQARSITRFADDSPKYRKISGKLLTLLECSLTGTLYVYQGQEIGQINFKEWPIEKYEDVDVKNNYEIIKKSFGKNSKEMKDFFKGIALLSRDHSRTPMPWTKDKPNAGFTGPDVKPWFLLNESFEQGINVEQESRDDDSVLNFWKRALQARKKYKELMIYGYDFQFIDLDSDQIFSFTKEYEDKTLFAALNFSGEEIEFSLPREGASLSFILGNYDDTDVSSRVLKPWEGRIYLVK"}
{"assay": "enzyme activity, inhibitor", "test system": "Saccharomyces cerevisiae", "IC50": "4.31 ± 0.42 µM", "Structure (SMILES)": "O=C(/C=C/c1ccc(O)c2oc(-c3ccc(O)c(O)c3)cc12)O[C@H](Cc1ccc(O)c(O)c1)C(=O)O"}
{"assay": "enzyme activity, inhibitor", "setting": "pH 6.8, 37 °C, with: p-nitrophenyl alpha-D-glucopyranoside", "IC50": "0.72 ± 1.44 µM", "Structure (SMILES)": "CN(C)c1ccc(C(=N/N=C/c2cccc(Cl)c2)c2ccc(N(C)C)cc2)cc1"}
{"assay": "enzyme activity, inhibitor, absorbance", "IC50": "> 100 µM", "Structure (SMILES)": "COC(=O)C1=COC(OC2OC(CO)C(O)C(O)C2O)C2C1CC(O)C2C (stereo not drawn)"}
{"assay": "enzyme activity, inhibitor", "setting": "pH 6.8", "IC50": "15.9 ± 4.7 µM", "Structure (SMILES)": "COc1ccc(-c2c(C(F)(F)F)oc3c(Cn4cnc5ccccc54)c(O)ccc3c2=O)cc1"}
{"assay": "enzyme activity, inhibitor", "setting": "pH 6.8, 37 °C, with: p-nitrophenyl alpha-D-glucopyranoside", "IC50": "0.35 ± 0.91 µM", "Structure (SMILES)": "Cc1ccccc1/C=N/N=C(c1ccc(N(C)C)cc1)c1ccc(N(C)C)cc1"}
{"assay": "enzyme activity, inhibitor, absorbance", "IC50": "190 µM", "Structure (SMILES)": "CCCCCCSc1nc2ccccc2n1CC(=O)NN1C(=O)CSC1c1ccc(N(CC)CC)cc1 (stereo not drawn)"}
{"assay": "enzyme activity, inhibitor, absorbance", "IC50": "> 100 µM", "Structure (SMILES)": "CC(C=CC1C(CO)=CC(=O)CC1(C)C)OC1OC(CO)C(O)C(O)C1O (stereo not drawn)"}
{"assay": "enzyme activity, inhibitor", "IC50": "98.4 µM", "Structure (SMILES)": "COc1cc(/C=C/C(=O)O)ccc1O"}
{"assay": "enzyme activity, inhibitor", "setting": "mean of two determinations, with: 4-nitrophenyl alpha-D-glucopyranoside", "IC50": "93.4 ± 4.39 µM", "Structure (SMILES)": "Cc1ccc2nc(C)n(/N=C/c3ccc(C(=O)O)cc3)c(=O)c2c1"}
{"assay": "enzyme activity, inhibitor", "IC50": "39.6 µM", "Structure (SMILES)": "O=C1C(=O)N(CCOc2ccccc2)c2ccccc21"}
{"assay": "enzyme activity, inhibitor, absorbance", "IC50": "> 100 µM", "Structure (SMILES)": "CC1=CC(=O)CC(C)(C)C1(O)C=CC(C)OC1OC(CO)C(O)C(O)C1O (stereo not drawn)"}
{"assay": "enzyme activity, inhibitor", "IC50": "16.2 µM", "Structure (SMILES)": "O=C1C(=O)N(CCOc2ccc(Br)cc2)c2ccc(Br)cc21"}
{"assay": "enzyme activity, inhibitor", "setting": "pH 6.8, 37 °C, with: p-nitrophenyl alpha-D-glucopyranoside", "IC50": "0.28 ± 3.13 µM", "Structure (SMILES)": "CN(C)c1ccc(C(=N/N=C/c2ccc([N+](=O)[O-])cc2)c2ccc(N(C)C)cc2)cc1"}
{"assay": "enzyme activity, inhibitor", "IC50": "30.3 µM", "Structure (SMILES)": "O=C1C(=O)N(CCOc2ccc(Br)cc2)c2ccccc21"}
{"assay": "inhibitor", "IC50": "71.64 ± 0.58 µM", "Structure (SMILES)": "CCCCCCSc1nc2ccccc2n1CC(=O)NN1C(=O)CSC1c1cccc(OC)c1 (stereo not drawn)"}
{"assay": "enzyme activity, inhibitor", "setting": "pH 6.8, 37 °C, with: p-nitrophenyl alpha-D-glucopyranoside", "IC50": "0.31 ± 1.59 µM", "Structure (SMILES)": "COc1ccc(/C=N/N=C(c2ccc(N(C)C)cc2)c2ccc(N(C)C)cc2)cc1OC"}
{"assay": "enzyme activity, inhibitor", "IC50": "20.3 µM", "Structure (SMILES)": "O=C1C(=O)N(CCOc2ccc(Cl)cc2)c2ccccc21"}
{"assay": "enzyme activity, inhibitor", "setting": "pH 6.8", "IC50": "21.2 ± 0.7 µM", "Structure (SMILES)": "COc1ccc(-c2c(C(F)(F)F)oc3c(Cn4nc(C)cc4C)c(O)ccc3c2=O)cc1"}
{"assay": "enzyme activity, inhibitor, absorbance", "IC50": "> 100 µM", "Structure (SMILES)": "C=CC1C(OC2OC(COC(CC3C(C(=O)OC)=COC(OC4OC(CO)C(O)C(O)C4O)C3C=C)OC)C(O)C(O)C2O)OC=C(C(=O)OC)C1CC(=O)O (stereo not drawn)"}
{"assay": "enzyme activity, inhibitor", "setting": "pH 6.8, 37 °C, with: p-nitrophenyl alpha-D-glucopyranoside", "IC50": "0.45 ± 0.91 µM", "Structure (SMILES)": "CSc1ccc(/C=N/N=C(c2ccc(N(C)C)cc2)c2ccc(N(C)C)cc2)cc1"}
{"IC50": "369 ± 13.8 µM", "Structure (SMILES)": "OC[C@H]1O[C@@H](Oc2cc3c(O)cc(O)cc3[o+]c2-c2cc(O)c(O)c(O)c2)[C@H](O)[C@@H](O)[C@H]1O"}
{"assay": "enzyme activity, inhibitor", "setting": "pH 6.8, 37 °C, with: p-nitrophenyl alpha-D-glucopyranoside", "IC50": "0.31 ± 2.93 µM", "Structure (SMILES)": "CN(C)c1ccc(C(=N/N=C/c2ccc(Cl)cc2)c2ccc(N(C)C)cc2)cc1"}
{"assay": "enzyme activity, inhibitor, absorbance", "IC50": "> 100 µM", "Structure (SMILES)": "O=C(O)c1c(O)cccc1/C=C/c1ccc(O)cc1"}
{"assay": "enzyme activity, inhibitor, absorbance", "IC50": "498 µM", "Structure (SMILES)": "O=C(C=Cc1ccc(O)c(O)c1)OC1CC(O)(C(=O)O)CC(O)C1OC(=O)C=Cc1ccc(O)c(O)c1 (stereo not drawn)"}
{"assay": "enzyme activity, inhibitor, absorbance", "IC50": "> 100 µM", "Structure (SMILES)": "O=C(O)c1c(CC(O)c2ccc(O)cc2)cccc1OC1OC(CO)C(O)C(O)C1O (stereo not drawn)"}
{"assay": "enzyme activity, inhibitor", "IC50": "327 µM", "Structure (SMILES)": "COc1ccc2c(c1OC)C(C(Cl)(Cl)Cl)N1CCc3cc4c(cc3C1=C2)OCO4 (stereo not drawn)"}
{"assay": "enzyme activity, inhibitor, absorbance", "IC50": "> 100 µM", "Structure (SMILES)": "O=c1ccc2ccc(O[C@@H]3O[C@H](CO)[C@@H](O)[C@H](O)[C@H]3O)cc2o1"}
{"assay": "enzyme activity, inhibitor", "IC50": "41.5 µM", "Structure (SMILES)": "O=C1C(=O)N(CCOc2ccccc2)c2ccc(Br)cc21"}
{"assay": "enzyme activity, inhibitor, absorbance", "IC50": "> 100 µM", "Structure (SMILES)": "CC1CCC2C(C(=O)O)=COC(OC3OC(CO)C(O)C(O)C3O)C12 (stereo not drawn)"}
{"assay": "enzyme activity, inhibitor", "IC50": "61.8 µM", "Structure (SMILES)": "O=C1C(=O)N(CCOc2ccc(Cl)cc2)c2ccc(Cl)cc21"}
